Measured values of several laboratories.
Protocols differ between the studies behind these lines. Numbers after ± are the reported error.
Target: ATP-dependent translocase ABCB1 (ABCB1, Homo sapiens, UniProt P08183)
Sequence of UniProt P08183 (whole entry, looked up): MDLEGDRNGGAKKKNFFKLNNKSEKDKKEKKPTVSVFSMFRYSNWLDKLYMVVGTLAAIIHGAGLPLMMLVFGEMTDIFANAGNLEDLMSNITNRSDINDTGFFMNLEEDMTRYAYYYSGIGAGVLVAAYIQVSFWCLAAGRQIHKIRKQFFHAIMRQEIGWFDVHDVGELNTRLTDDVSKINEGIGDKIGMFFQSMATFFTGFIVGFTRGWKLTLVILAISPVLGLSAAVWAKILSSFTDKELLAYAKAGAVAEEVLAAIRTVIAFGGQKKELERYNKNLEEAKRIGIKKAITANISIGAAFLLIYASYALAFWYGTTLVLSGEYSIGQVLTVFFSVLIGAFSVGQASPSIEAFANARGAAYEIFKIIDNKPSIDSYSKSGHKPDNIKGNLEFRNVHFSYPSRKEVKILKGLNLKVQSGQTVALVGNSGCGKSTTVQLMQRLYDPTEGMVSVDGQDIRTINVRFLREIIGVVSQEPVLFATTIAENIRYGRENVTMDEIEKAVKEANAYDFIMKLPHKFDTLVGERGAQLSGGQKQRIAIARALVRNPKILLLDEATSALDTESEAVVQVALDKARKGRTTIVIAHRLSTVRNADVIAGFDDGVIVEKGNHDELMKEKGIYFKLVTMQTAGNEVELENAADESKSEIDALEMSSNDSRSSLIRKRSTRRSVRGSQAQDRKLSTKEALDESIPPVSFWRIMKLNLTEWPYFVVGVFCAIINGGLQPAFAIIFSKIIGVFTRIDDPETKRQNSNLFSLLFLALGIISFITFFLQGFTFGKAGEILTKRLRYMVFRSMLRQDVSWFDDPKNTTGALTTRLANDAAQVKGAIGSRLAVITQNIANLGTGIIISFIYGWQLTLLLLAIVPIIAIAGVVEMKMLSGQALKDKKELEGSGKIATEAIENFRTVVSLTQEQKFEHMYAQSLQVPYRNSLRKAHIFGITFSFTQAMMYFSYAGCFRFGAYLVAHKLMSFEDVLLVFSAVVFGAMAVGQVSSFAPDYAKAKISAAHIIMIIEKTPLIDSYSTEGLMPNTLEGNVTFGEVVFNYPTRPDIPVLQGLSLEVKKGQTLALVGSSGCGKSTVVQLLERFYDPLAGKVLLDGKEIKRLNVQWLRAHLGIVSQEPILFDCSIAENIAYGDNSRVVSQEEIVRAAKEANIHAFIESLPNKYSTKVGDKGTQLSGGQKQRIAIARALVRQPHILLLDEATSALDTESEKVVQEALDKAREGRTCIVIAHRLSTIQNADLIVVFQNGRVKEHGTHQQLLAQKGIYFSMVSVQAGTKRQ

SMILES = C[C@@H](Oc1cc(-c2cnn(C3CCNCC3)c2)cnc1N)c1c(Cl)ccc(F)c1Cl; assay = transport; test system = MDCK-MDR1; conditions = 10 µM, 90 min; scale = relative to: B-A over A-B; quantity = efflux ratio; value = 10
SMILES = CCOC(=O)c1csc([C@@H](NC(=O)c2csc([C@@H](NC(=O)c3csc([C@@H](NC(=O)c4csc([C@@H](NC(=O)OC(C)(C)C)C(C)C)n4)C(C)C)n3)C(C)C)n2)C(C)C)n1; assay = Bodipy-FL-prazosin efflux, flow cytometry; test system = HeLa transduced with BacMam ABCB1; conditions = 10 µM, 45 min, 5% FBS; scale = relative to: 1 µM tariquidar; quantity = inhibition; value = 81%
SMILES = C[C@@H](Oc1cc(-c2cnn(C3CCNCC3)c2)cnc1N)c1c(Cl)ccc(F)c1Cl; test system = LLC-PK1 cells expressing human ABCB1; conditions = 3.5 h, added: zosuquidar 1 µM; scale = apical to basolateral; quantity = Papp; value = 4.79 ± 1.05 ×10⁻⁶ cm/s
SMILES = O=C(c1ccccc1Cl)N1CCN(c2cc(-c3ccccc3)nc3cc(-c4cccc(Cl)c4)nn23)CC1; assay = JC-1 efflux, inhibitor; test system = Jurkat-DNR; quantity = IC50; value = 1.85 ± 0.75 µM
SMILES = C[C@H]1Oc2cc(cnc2N)-c2c(nn(C)c2C#N)CN(C)C(=O)c2ccc(F)cc21; assay = transport; test system = MDCK-MDR1; conditions = 10 µM, 90 min; scale = relative to: B-A over A-B; quantity = efflux ratio; value = < 2
SMILES = Cc1ccc2c(=O)n(-c3ccc(F)cc3)c(CCN3C(=O)c4cccc(OC(C)C)c4C3=O)nc2c1; assay = substrate; test system = MDCK-MDR1 cells, HBSS buffer; conditions = 1 µM, 90 min, pH 7.4; quantity = efflux ratio; value = 1.11
SMILES = CC(=O)c1cc(C(=O)N[C@@H](C)Cn2ccc(-c3ccc(C#N)c(Cl)c3)n2)[nH]n1; assay = inhibitor; test system = MDCK; conditions = added: digoxin substrate; quantity = IC50; value = 2.6 µM
SMILES = O=C(c1ccco1)N1CCN(c2cc(-c3ccccc3)nc3cc(-c4cccc(Cl)c4)nn23)CC1; assay = JC-1 efflux, inhibitor; test system = Jurkat-DNR; quantity = IC50; value = 6.18 ± 4.92 µM
SMILES = CCOC(=O)c1csc([C@@H](NC(=O)OC(C)(C)C)C(C)C)n1; assay = Bodipy-FL-prazosin efflux, flow cytometry; test system = HeLa transduced with BacMam ABCB1; conditions = 20 µM, 45 min, 5% FBS; scale = relative to: 1 µM tariquidar; quantity = inhibition; value = 10%
SMILES = COc1cccc(-c2cc3nc(-c4ccco4)cc(N4CCN(C(C)=O)CC4)n3n2)c1; assay = JC-1 efflux, inhibitor; test system = Jurkat-DNR; quantity = IC50; value = 1.64 µM
SMILES = CC(C)[C@H](N)c1nc(C(=O)N[C@H](c2nc(C(=O)O)cs2)C(C)C)cs1; assay = calcein-AM efflux, flow cytometry; test system = HeLa transduced with BacMam ABCB1; conditions = 20 µM, 10 min, 5% FBS, added: calcein-AM 0.5 µM; scale = relative to: 1 µM tariquidar; quantity = inhibition; value = < 5%
SMILES = CC(=O)O[C@H]1C(=O)[C@@]2(C)[C@H]([C@H](OC(=O)c3ccccc3)[C@]3(O)C[C@H](OC(=O)[C@H](O)[C@@H](NC(=O)c4ccccc4)c4ccccc4)C(C)=C1C3(C)C)[C@]1(OC(C)=O)CO[C@@H]1C[C@@H]2O; assay = ATPase activity, substrate; test system = membranes; conditions = added: ATP 1 mM; quantity = Vmax; value = 9.5 ± 1 nmol Pi/min/mg protein
SMILES = COc1ccc(CNC(=O)c2csc([C@@H](NC(=O)c3csc([C@@H](NC(=O)OC(C)(C)C)C(C)C)n3)C(C)C)n2)c(OC)c1; assay = Bodipy-FL-prazosin efflux, flow cytometry; test system = HeLa transduced with BacMam ABCB1; conditions = 10 µM, 45 min, 5% FBS; scale = relative to: 1 µM tariquidar; quantity = inhibition; value = 87%
SMILES = Cc1ccc(Nc2nccc(N(C)c3ccc4c(C)n(C)nc4c3)n2)cc1S(N)(=O)=O; assay = bidirectional transport; test system = MDCK-MDR1; conditions = 5 µM, 240 min, added: erlotinib 5 µM; quantity = Papp A-B; value = 3.5 ± 0.13 ×10⁻⁶ cm/s
SMILES = CC[C@]1(O)C[C@@H]2CN(CCc3c([nH]c4ccccc34)[C@@](C(=O)OC)(c3cc4c(cc3OC)N(C)[C@H]3[C@@](O)(C(=O)OC)[C@H](OC(C)=O)[C@]5(CC)C=CCN6CC[C@]43[C@@H]65)C2)C1; assay = substrate; test system = MDCK-II overexpressing MDR1; conditions = 9.3 nM, 60 min, 37 °C, added: rucaparib 2 M; scale = relative to: vector control cells; quantity = intracellular accumulation; value = 20.1 ± 2.6%
SMILES = CC(=O)N1CCN(c2cc(-c3ccccc3)nc3cc(-c4cccc(Cl)c4)nn23)CC1; assay = JC-1 efflux, inhibitor; test system = Jurkat-DNR; quantity = IC50; value = 5.67 ± 2.21 µM
SMILES = CC(C)[C@H](NC(=O)OC(C)(C)C)c1nc(C(=O)N[C@H](c2nc(C(=O)N[C@H](c3nc(C(=O)O)cs3)C(C)C)cs2)C(C)C)cs1; assay = Bodipy-FL-prazosin efflux, flow cytometry; test system = HeLa transduced with BacMam ABCB1; conditions = 10 µM, 45 min, 5% FBS; scale = relative to: 1 µM tariquidar; quantity = inhibition; value = < 10%
SMILES = O=C(c1ccoc1)N1CCN(c2cc(-c3ccccc3F)nc3cc(-c4ccccc4)nn23)CC1; assay = JC-1 efflux, inhibitor; test system = Jurkat-DNR; quantity = IC50; value = 5.61 µM
SMILES = CN1CCN(c2ccc(C(=O)Nc3n[nH]c4ccc(Cc5cc(F)cc(F)c5)cc34)c(NC3CCOCC3)c2)CC1; test system = LLC-PK1 cells expressing human ABCB1; conditions = 3.5 h, added: zosuquidar 1 µM; scale = apical to basolateral; quantity = Papp; value = 1.52 ± 0.19 ×10⁻⁶ cm/s
SMILES = COc1cccc(-c2cc(N3CCN(C(=O)c4ccoc4)CC3)n3nc(-c4ccccc4)cc3n2)c1; assay = JC-1 efflux, inhibitor; test system = Jurkat-DNR; quantity = IC50; value = 16.4 µM
SMILES = CC(C)[C@H](NC(=O)OC(C)(C)C)c1nc(C(=O)O)cs1; assay = Bodipy-FL-prazosin efflux, flow cytometry; test system = HeLa transduced with BacMam ABCB1; conditions = 20 µM, 45 min, 5% FBS; scale = relative to: 1 µM tariquidar; quantity = inhibition; value = 10%
SMILES = COc1ccc(C(=O)N2CCN(c3cc(-c4ccccc4)nc4cc(-c5cccc(Cl)c5)nn34)CC2)cc1; assay = JC-1 efflux, inhibitor; test system = Jurkat-DNR; quantity = IC50; value = 2.89 ± 0.55 µM
SMILES = CC(C)[C@H](NC(=O)OC(C)(C)C)c1nc(C(=O)N[C@H](c2nc(C(=O)O)cs2)C(C)C)cs1; assay = calcein-AM efflux, flow cytometry; test system = HeLa transduced with BacMam ABCB1; conditions = 20 µM, 10 min, 5% FBS, added: calcein-AM 0.5 µM; scale = relative to: 1 µM tariquidar; quantity = inhibition; value = < 5%
